Published values of several laboratories.
Protocols differ between the studies behind these lines. “And” joins repeats or separate records; there may be more than shown. Numbers after ± are the reported error.
UCHL1: Ubiquitin carboxyl-terminal hydrolase isozyme L1 (UCHL1, Homo sapiens, UniProt P09936)
UniProt P09936, sequence (whole entry, looked up): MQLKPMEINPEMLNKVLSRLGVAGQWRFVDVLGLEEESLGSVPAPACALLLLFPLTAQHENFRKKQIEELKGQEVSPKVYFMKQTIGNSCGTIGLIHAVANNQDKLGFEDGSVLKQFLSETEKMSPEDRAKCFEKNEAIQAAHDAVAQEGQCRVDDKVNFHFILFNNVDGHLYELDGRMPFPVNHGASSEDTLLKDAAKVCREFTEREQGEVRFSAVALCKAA

CC(=O)OC[C@H]1O[C@@H]([S-])[C@H](OC(C)=O)[C@@H](OC(C)=O)[C@@H]1OC(C)=O.CCP(CC)CC.[Au+]
EC50 (MCF7; cytotoxicity; 5 days): 0.05 µM

CC[C@H](C)[C@H](NC(=O)[C@H](CC(=O)O)NC(=O)[C@H](CCC(=O)O)NC(=O)[C@@H](N)CC(N)=O)C(=O)N[C@@H](CC(=O)O)C(=O)N[C@@H](CCC(N)=O)C(=O)N[C@@H](CCSC)C(=O)N[C@@H](Cc1ccccc1)C(=O)N[C@@H](CO)C(=O)N[C@H](C(=O)N[C@@H](CC(C)C)C(=O)N[C@@H](CC(C)C)C(=O)NCC(=O)N[C@@H](CCC(=O)O)C(=O)N[C@@]1(C)CCCC=CCCC[C@@](C)(C(=O)N[C@@H](CCC(N)=O)C(=O)N[C@@H](CO)C(=O)O)NC(=O)[C@H](CC(C)C)NC(=O)[C@H](CC(C)C)NC(=O)[C@H](CC(=O)O)NC1=O)[C@@H](C)O
cell viability (MCF7; 40 µM, 24, 48, 72 h): not toxic

O=c1[nH]cc(F)c(=O)[nH]1
viability (MCF7; CCK-8; 50 µM, 48 (unit not given); reference: untreated control): 97.37 ± 0.9%

C[C@]12CC[C@@H]3c4ccc(O)cc4C[C@@H](CCCCCCCCC[S+]([O-])CCCC(F)(F)C(F)(F)F)[C@H]3[C@@H]1CC[C@@H]2O (some centres unmarked)
viability (MCF7; CCK-8; 200 nM; reference: untreated): 51.4% and 48.8% and 42.5%

CCCCCCCCCC(=O)N[C@@H](Cc1c[nH]c2ccccc12)C(=O)N[C@H](CC(N)=O)C(=O)N[C@@H](CC(=O)O)C(=O)N[C@@H]1C(=O)NCC(=O)N[C@@H](CCCN)C(=O)N[C@@H](CC(=O)O)C(=O)N[C@H](C)C(=O)N[C@@H](CC(=O)O)C(=O)NCC(=O)N[C@H](CO)C(=O)N[C@@H]([C@H](C)CC(=O)O)C(=O)N[C@@H](CC(=O)c2ccccc2N)C(=O)O[C@@H]1C
EC50 (MCF7; cytotoxicity; 5 days, 5% FBS): > 64 µM

COc1ccc(CN2CCN(C(=O)CCl)CC2)cc1F.Cl
labelling (UCHL1; covalent, intact protein LC-MS; 12.5 µM): 22.3%

CC/C(=C(/c1ccc(OCCNC)cc1)c1ccc(B2OC(C)(C)C(C)(C)O2)cc1)c1ccccc1
cell growth (MCF7; 5 µM; reference: vehicle): 31%

COc1cccc(NC(=O)C(C#N)=Cc2csnn2)c1
labelling (UCHL1; covalent, intact protein LC-MS; 12.5 µM): 21.1%

COc1ccc(S(=O)(=O)ON=C2C=C(C)C(=O)C(C)=C2)cc1
CC50 (MCF7; cell viability): 21.7 µM

CC(=O)c1nn(-c2ccc(Cl)cc2)/c(=N/N=C(\C)c2ccc(NC(=O)c3ccccc3)cc2)s1
viability (MCF7; 0.625 µM): 11.6% and 3.79%

O=[N+]([O-])c1cc(I)c(O)c(C=NNc2ccccc2)c1
viable cells (MCF7; Muse annexin V; IC50, 24 h): 37.9%

For quick reference, copied from above:
CC/C(=C(/c1ccc(OCCNC)cc1)c1ccc(B2OC(C)(C)C(C)(C)O2)cc1)c1ccccc1
cell growth (MCF7; 5 µM; reference: vehicle): 31%
